Measurements pooled from the literature.
Numbered parts are unrelated; each lists some results of a single study.

Set 1 — method: protein-binding microarray; molecule type: double-stranded DNA, one strand shown; sample: in vitro; tested at: 250 nM; setting: 60-bp whole probe; added: salmon DNA 0.4 mg/ml; relative to: random background probes; direction: higher = stronger binding; constant ends, left off below: GCCTAGCAC … GTCTTGATTCGCTTGACGCTGCTG
Target: Interferon regulatory factor 7, full length, phosphomimetic (IRF7, Homo sapiens, UniProt Q92985, residues 1-503, S101K/S471D/S472D/S475D/S476D/S477D/S483D/S484D/S487D)
Sequence of UniProt Q92985 (whole entry, unmodified, looked up): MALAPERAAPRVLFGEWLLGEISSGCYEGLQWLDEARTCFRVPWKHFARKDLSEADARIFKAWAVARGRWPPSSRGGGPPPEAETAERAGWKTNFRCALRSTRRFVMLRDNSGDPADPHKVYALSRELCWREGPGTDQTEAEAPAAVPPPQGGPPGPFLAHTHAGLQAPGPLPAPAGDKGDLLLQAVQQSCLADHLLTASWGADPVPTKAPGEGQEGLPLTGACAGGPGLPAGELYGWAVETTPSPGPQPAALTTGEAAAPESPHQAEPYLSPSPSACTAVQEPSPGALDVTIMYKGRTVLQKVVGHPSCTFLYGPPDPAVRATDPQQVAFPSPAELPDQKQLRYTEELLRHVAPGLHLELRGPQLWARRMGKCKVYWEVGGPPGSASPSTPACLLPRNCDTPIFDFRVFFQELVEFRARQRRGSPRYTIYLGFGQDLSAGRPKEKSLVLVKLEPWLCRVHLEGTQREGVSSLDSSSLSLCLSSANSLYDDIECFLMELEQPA
`TTGTGTGTGTGTTTGTGTGTGTGCTAG` gave a log fluorescence of -0.561 z-score.
`TCATATTAAATTTTCACACTGTGCTAG` gave a log fluorescence of 0.919 z-score.
For `GACCAGGGGCCACAGCCTCAGTGCTAG`, the log fluorescence was -0.517 z-score.
For `GATGATCTCAGACTGGAGACGTGCTAG`, the log fluorescence was -0.627 z-score.
`TGTGCTTTCCTGATGGTCCTGTGCTAG` has a log fluorescence of 0.546 z-score.
`TTAGGACTGCTTCTCCTTTCGTGCTAG` has a log fluorescence of 0.656 z-score.
`TCACAACTTTTTTTAATACTGTGCTAG` has a log fluorescence of 0.249 z-score.
`TCAGATTTATCAAATGTGACTGTGCTA` gave a log fluorescence of -0.25 z-score.
With `GACGGACTGCTTCTCCTCACGTGCTAG` the log fluorescence was 0.127 z-score.
For `TCAGGTTTCACTTTCCAACTGTGCTAG`, the log fluorescence was 9.65 z-score.
With `GACGGTAACGGACTGGGGACGTGCTAG` the log fluorescence was -0.23 z-score.

Set 2 — method: RNA Bind-n-Seq; molecule type: RNA; sample: in vitro; tested at: 200 nM; setting: whole 134-nt RNA, ends assumed; added: 150 mM KCl; relative to: input library; direction: higher = stronger binding
Target: Ras GTPase-activating protein-binding protein 1, full length (G3BP1, Homo sapiens, UniProt Q13283)
Sequence of UniProt Q13283 (whole entry, looked up): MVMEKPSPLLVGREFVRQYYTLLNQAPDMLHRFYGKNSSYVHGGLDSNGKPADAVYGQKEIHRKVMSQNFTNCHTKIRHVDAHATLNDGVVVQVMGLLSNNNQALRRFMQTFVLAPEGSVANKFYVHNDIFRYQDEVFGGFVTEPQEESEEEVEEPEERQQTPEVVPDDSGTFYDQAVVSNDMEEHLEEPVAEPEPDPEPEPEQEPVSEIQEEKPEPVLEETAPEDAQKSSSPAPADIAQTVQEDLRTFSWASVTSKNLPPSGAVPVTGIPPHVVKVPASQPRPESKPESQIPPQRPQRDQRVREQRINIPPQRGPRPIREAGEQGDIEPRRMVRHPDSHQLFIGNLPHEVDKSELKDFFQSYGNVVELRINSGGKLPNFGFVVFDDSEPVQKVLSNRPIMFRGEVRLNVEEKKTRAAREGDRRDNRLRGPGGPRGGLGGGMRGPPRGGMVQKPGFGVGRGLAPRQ
With `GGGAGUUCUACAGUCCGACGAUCCACAGACAACACGCACCCACACAGACACAGAGGGAAGGGGUUGGAAUGGGGACAGGGUGCACAGCAGGGCGGGGUAGGACCCCAGCCCCUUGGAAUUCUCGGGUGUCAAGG` the log2 enrichment was 1.86.
`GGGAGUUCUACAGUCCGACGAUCACCAUGCAGGUGGGCAUCUUUGGGAAGUGGGGCAAGGGGGGGAUAGGGAGGGGGGUAACACUUUGGGACCAGGUGGUCCCAGGUCGUUUCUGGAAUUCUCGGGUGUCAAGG` has a log2 enrichment of 0.932.
With `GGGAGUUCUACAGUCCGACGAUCGUCCUGUGCUACACAUCGUAUGUACCGAAUCGGGGAGGGGUUUGGGGUUUUUUUGGGGAAAGUAUUAUGUUACGCCGUUCGGAUCUGCACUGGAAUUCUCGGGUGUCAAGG` the log2 enrichment was 0.266.
For `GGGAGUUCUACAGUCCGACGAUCUAACUUUAGAGGAGGAUCUGAUGGAUAUGGCAGUGGACGUGGAUUUGGGGAUGGCUAAAAUGGGUAUGGAGGAGGACCUGGAGGUGGCAAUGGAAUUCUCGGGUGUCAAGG`, the log2 enrichment was 0.205.
`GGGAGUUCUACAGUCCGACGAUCUCAAGUCCUGUGCUACACAUCGUAUGUACCGAAUCGGGGCCGGGCCGGGGCCGGGAAAGUAUUAUGUUACGCCGUUCGGAUCUGCACUUCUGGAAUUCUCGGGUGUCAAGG` has a log2 enrichment of -0.152.
`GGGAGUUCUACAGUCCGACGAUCCUGUGCUACACAUCGUAUGUACCGAAUCAAACCCCCCCAAACCCCCCCAAACCCCCCCAAAAAAGUAUUAUGUUACGCCGUUCGGAUCUGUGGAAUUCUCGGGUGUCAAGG` has a log2 enrichment of 0.953.

Set 3 — method: RNA Bind-n-Seq; molecule type: RNA; sample: in vitro; tested at: not given; relative to: input RNA pool; direction: higher = stronger binding
Target: RING finger protein unkempt homolog, zinc fingers 1-6, GST-SBP tag (UNK, Homo sapiens, UniProt Q9C0B0, residues 30-357)
Setting: RNA with constant flanks, human-mouse chimeric sites, ends assumed
Residues (chain): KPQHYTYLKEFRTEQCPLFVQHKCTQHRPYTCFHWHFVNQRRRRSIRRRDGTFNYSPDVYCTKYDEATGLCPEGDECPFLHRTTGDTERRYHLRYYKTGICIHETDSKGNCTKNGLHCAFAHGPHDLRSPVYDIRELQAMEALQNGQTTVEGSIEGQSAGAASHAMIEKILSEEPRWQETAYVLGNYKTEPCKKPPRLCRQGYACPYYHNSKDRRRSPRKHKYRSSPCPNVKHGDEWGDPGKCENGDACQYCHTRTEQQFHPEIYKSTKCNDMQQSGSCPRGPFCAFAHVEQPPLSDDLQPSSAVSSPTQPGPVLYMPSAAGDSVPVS
For `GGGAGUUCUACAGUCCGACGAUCAGGAGGAGGUUAAAGGGUGAGAGUGGGGUGGAAGACUGUGUCAUGGCUCUGGAGACAUUGUUUAGUGUCCUGCUUUCUCUGUGCAGACUGAUGGCCCCCUACACACCCUUUCUGACUGAGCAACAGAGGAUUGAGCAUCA`, the bound/input enrichment was 0.0962 ratio.
For `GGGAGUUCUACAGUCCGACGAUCAAAGAGUGGAUAGAGUGUGCACAUGGAAUCGGUGGGACCCGGGCGAAGAAAGAGUGCAAGAUAGAGUUCGAUGACUUCGAAGAGUGCUUGCUUCGGUACAAAACGAUGAGGCGAAUGCAUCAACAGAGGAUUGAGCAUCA`, the bound/input enrichment was 0.338 ratio.
`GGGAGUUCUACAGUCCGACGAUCUCUGGCCAUACUCGUGCGUAUGGUGUUUGCUUUGUGGACACUUCACUGGGCAAGUUUUUCAUCGGCCAGUUUUCGGAUGACCGCCACUGUUCCAGAUUUAGGACGCUAGUGGCUCACUAUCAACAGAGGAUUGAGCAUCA` gave a bound/input enrichment of 0.15 ratio.
The bound/input enrichment of `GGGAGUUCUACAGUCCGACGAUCCACGUGUCUGCAGUACUUGAUGUGGACUACUCUCCCACUGGGAAGGAAUUUGUGUCUGCCAGCUUUGAUAAAUCUAUUAGAAUCUUUCCUGUGGACAAGAGCCGAAGCAGGGAGGUAUAUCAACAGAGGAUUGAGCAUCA` is reported as 0.495 ratio.
The bound/input enrichment of `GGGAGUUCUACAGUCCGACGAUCAACGUGGAACUAAGUUCCUUGGCCCGGCUUCCCAGCUUGAAUAAACUUCGAAAAUUGGAACUUAGUGACAAUAUAAUUUCUGGAGGCUUGGAAGUCCUGGCAGAGAAAUGUCCAAAUCUUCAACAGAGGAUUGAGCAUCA` is reported as 0.514 ratio.

Set 4 — method: competition protein-binding microarray; molecule type: double-stranded DNA, one strand shown; sample: in vitro; tested at: 2 µM; added: Pho4 competitor, 0.05 µM; direction: higher = stronger binding
Target: Centromere-binding protein 1, full length, His-tagged (CBF1, Saccharomyces cerevisiae, UniProt P17106, residues 1-351)
Sequence of UniProt P17106 (whole entry, looked up): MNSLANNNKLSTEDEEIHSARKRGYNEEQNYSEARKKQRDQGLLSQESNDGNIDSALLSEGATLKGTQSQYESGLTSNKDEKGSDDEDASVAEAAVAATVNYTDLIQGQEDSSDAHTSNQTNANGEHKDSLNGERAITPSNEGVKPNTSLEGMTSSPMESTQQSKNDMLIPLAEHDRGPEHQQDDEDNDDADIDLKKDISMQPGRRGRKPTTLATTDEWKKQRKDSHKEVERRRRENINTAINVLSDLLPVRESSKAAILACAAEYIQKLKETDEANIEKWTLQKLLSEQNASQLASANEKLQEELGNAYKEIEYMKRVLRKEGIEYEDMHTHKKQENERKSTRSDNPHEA
Setting: whole 60-bp probe, lowest competitor level
With `AAATTACTAAGTTGGCCGGTGGGTGACGCCGTATGAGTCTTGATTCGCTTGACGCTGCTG` the fluorescence intensity was 64.4 a.u.
`AGGGCGAGGGTGATACTCGTGGGTATGTTTCAATGCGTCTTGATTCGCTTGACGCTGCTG` gave a fluorescence intensity of 67.6 a.u.
With `CGTTGCTTATTAAGTGACATGACGCTATTGTATTGTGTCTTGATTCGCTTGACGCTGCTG` the fluorescence intensity was 85.1 a.u.
The fluorescence intensity of `TTCTTTAGAGGTTCACACGTAGTAAAAGAAAAAAAAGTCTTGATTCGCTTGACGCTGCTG` is reported as 80.4 a.u.
For `CTTTCCCGATCTTGCAACGTGGGTGTAGCACATTTGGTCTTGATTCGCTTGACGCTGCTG`, the fluorescence intensity was 77.3 a.u.
`CGTCCTAGTGATTGTCTTGTGGGTGCCATGAGGAAGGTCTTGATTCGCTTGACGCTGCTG` gave a fluorescence intensity of 84.7 a.u.
`CGGGGTTAAGTTTGGACTGTGGGTGGCTTGCAGCAGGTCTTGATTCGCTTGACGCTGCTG` has a fluorescence intensity of 78.9 a.u.
The fluorescence intensity of `TAGGAAGAAGAACTCGTCGTGCAAATCGGATAGTTGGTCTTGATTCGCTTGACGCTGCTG` is reported as 85 a.u.
With `AGCCACAGTTCGAGTCACGTGCGGACCATGCTGACTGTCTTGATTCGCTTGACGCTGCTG` the fluorescence intensity was 7850 a.u.
`CCGGAAAAACCTGTTCGCGTGAGCCGAACAACTTTCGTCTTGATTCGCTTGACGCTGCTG` has a fluorescence intensity of 89.2 a.u.
The fluorescence intensity of `CTAACGAAGGTTTGCGTCGTGGGTGACAAGCCAAGTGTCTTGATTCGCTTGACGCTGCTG` is reported as 75.6 a.u.
For `CTTCTGTAAATTTGTCACGCGACTTGACGCGCCCCGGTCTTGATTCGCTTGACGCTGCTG`, the fluorescence intensity was 765 a.u.
With `CCGCCCTTCTTCCGTCCCGTGCGGAAGGGGGGCGCGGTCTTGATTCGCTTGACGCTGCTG` the fluorescence intensity was 145 a.u.
With `TAGGCCGTCTTATGTAACGTGGTGAACGCTGCCTAGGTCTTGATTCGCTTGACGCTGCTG` the fluorescence intensity was 75.7 a.u.
`AGCCGCAATACGTATCACATGGCTCAACCAATCTCGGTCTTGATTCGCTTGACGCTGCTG` gave a fluorescence intensity of 954 a.u.
`GTCTTGTCTCATTGCCAGGTGGGTGTCCCCACTTCAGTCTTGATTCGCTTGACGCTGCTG` gave a fluorescence intensity of 76.7 a.u.

Set 5 — method: universal PBM; molecule type: double-stranded DNA, one strand shown; sample: in vitro; tested at: not given; direction: higher = stronger binding
Target: Sal-like protein 4, full length isoform B (SALL4, Homo sapiens, UniProt Q9UJQ4-2, residues 1-616)
Setting: 8-mer, flanks averaged, mean of replicates
With `AACCATAC` the E-score was 0.118.
The E-score of `TACCACTA` is reported as 0.0692.
`GAAGTAAC` has an E-score of 0.00188.
For `ACCAGTCT`, the E-score was -0.214.
`CTCGCCTA` has an E-score of -0.139.
`CAAGTCCG` has an E-score of -0.209.
`AATGTGCG` gave an E-score of 0.0666.
`AATACCCA` gave an E-score of 0.193.
`GTCGCAGA` gave an E-score of -0.129.
For `AGATATGG`, the E-score was 0.302.
With `AATGGTAC` the E-score was 0.165.
With `GGCATATA` the E-score was 0.286.
The E-score of `AAAATAGC` is reported as 0.0897.
The E-score of `CGTAGGAG` is reported as -0.104.
For `GCGCTGGA`, the E-score was -0.362.
The E-score of `AATGGTCG` is reported as -0.0851.
With `CAAACTAG` the E-score was -0.019.
For `TCTTATCA`, the E-score was 0.286.
With `GCCAGGCC` the E-score was -0.322.
With `CAATAGTA` the E-score was 0.136.
`CCGTACGC` has an E-score of -0.203.
`GGCAAGCA` gave an E-score of -0.0491.
`GCGCACCA` gave an E-score of -0.149.
`CTTTAATC` gave an E-score of 0.16.
`CTGAGCTC` has an E-score of -0.14.

Some of these lines once more (set 4):
With `CGTTGCTTATTAAGTGACATGACGCTATTGTATTGTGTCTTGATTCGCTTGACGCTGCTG` the fluorescence intensity was 85.1 a.u.
The fluorescence intensity of `TTCTTTAGAGGTTCACACGTAGTAAAAGAAAAAAAAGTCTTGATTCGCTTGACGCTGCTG` is reported as 80.4 a.u.
For `CTTTCCCGATCTTGCAACGTGGGTGTAGCACATTTGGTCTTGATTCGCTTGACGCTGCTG`, the fluorescence intensity was 77.3 a.u.
`CGTCCTAGTGATTGTCTTGTGGGTGCCATGAGGAAGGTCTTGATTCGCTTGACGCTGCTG` gave a fluorescence intensity of 84.7 a.u.
`CGGGGTTAAGTTTGGACTGTGGGTGGCTTGCAGCAGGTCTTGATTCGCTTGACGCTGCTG` has a fluorescence intensity of 78.9 a.u.
The fluorescence intensity of `TAGGAAGAAGAACTCGTCGTGCAAATCGGATAGTTGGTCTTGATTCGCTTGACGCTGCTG` is reported as 85 a.u.
With `AGCCACAGTTCGAGTCACGTGCGGACCATGCTGACTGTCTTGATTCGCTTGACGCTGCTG` the fluorescence intensity was 7850 a.u.
`CCGGAAAAACCTGTTCGCGTGAGCCGAACAACTTTCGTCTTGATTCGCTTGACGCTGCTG` has a fluorescence intensity of 89.2 a.u.
The fluorescence intensity of `CTAACGAAGGTTTGCGTCGTGGGTGACAAGCCAAGTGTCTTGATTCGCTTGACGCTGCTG` is reported as 75.6 a.u.
For `CTTCTGTAAATTTGTCACGCGACTTGACGCGCCCCGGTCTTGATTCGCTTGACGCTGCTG`, the fluorescence intensity was 765 a.u.
With `CCGCCCTTCTTCCGTCCCGTGCGGAAGGGGGGCGCGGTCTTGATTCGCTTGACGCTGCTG` the fluorescence intensity was 145 a.u.
